Measurements collected from several papers.
A part holds a random share of what one study measured. Substitutions count along the parent as printed.
Chain of UniProt O24409 (whole entry, looked up): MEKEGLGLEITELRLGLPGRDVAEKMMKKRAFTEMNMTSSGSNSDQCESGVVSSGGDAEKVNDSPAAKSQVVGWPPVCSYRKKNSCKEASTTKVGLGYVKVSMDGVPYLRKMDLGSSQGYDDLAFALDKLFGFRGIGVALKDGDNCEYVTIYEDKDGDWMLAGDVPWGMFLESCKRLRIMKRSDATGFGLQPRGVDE
Chain of UniProt Q38831 (whole entry, looked up): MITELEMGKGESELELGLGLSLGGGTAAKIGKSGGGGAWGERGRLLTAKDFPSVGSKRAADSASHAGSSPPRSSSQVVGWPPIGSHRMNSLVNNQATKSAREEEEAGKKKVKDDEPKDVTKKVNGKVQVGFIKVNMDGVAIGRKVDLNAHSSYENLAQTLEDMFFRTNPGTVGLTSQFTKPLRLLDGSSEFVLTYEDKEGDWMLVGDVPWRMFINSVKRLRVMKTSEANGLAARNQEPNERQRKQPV
Chain of UniProt Q8RYC6 (whole entry, looked up): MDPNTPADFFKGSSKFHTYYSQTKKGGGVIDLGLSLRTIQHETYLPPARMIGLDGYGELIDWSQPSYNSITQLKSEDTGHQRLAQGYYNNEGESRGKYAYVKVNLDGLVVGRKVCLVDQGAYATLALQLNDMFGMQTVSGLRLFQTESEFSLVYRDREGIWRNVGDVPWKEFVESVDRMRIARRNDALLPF
Chain of UniProt P93024 (whole entry, looked up): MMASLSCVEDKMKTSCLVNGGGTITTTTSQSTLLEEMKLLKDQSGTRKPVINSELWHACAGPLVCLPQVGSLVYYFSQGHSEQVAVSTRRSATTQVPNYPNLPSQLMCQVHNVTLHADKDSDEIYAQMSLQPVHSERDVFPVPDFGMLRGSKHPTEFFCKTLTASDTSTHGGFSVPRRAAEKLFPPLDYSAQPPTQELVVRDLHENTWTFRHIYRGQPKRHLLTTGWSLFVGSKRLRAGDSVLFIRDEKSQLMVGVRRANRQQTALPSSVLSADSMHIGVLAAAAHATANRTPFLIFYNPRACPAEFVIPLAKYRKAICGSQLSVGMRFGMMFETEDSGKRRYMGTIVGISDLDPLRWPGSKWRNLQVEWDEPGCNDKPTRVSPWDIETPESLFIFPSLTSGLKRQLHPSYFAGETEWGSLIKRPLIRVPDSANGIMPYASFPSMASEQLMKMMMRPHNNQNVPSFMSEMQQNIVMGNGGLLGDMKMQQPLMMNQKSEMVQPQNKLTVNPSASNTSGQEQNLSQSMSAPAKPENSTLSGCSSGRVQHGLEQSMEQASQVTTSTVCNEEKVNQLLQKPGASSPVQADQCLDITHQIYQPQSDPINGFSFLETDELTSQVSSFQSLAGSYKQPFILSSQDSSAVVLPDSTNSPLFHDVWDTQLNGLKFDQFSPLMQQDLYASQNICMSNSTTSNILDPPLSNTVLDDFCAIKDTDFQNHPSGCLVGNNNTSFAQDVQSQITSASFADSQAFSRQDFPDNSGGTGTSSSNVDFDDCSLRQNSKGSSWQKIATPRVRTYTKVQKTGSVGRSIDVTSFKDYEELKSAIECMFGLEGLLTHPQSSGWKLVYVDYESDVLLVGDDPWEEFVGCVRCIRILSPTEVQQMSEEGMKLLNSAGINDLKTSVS

Study 1 — Molecule: B1 (IAA1); technique: two-hybrid; direction: higher = firmer interaction
B1: IAA1 (Arabidopsis thaliana, UniProt P49677); chain MEVTNGLNLKDTELRLGLPGAQEEQQLELSCVRSNNKRKNNDSTEESAPPPAKTQIVGWPPVRSNRKNNNNKNVSYVKVSMDGAPYLRKIDLKMYKNYPELLKALENMFKFTVGEYSEREGYKGSGFVPTYEDKDGDWMLVGDVPWDMFSSSCQKLRIMKGSEAPTAL
The positive tests was 4 (ARF5 788-902 (Arabidopsis thaliana, UniProt P93024); reference: out of 4 tests).
IAA8 (Arabidopsis thaliana, UniProt Q38826); reference: out of 4 tests — positive tests: 4.
IAA32 (Arabidopsis thaliana, UniProt Q8RYC6); reference: out of 4 tests — positive tests: 0.
It gave 4 for positive tests (IAA19 (Arabidopsis thaliana, UniProt O24409); reference: out of 4 tests).
For IAA13 (Arabidopsis thaliana, UniProt Q38831); reference: out of 2 tests: positive tests read 0.

Study 2 — target: CCNB1, cyclin fold, Cln2 fusion (human); technique: yeast growth competition, sequencing; matrix: yeast; notes: weak parent motif; reference: not given; direction: higher = stronger binding
Parent: BORA docking peptide (human); SSLRRKLFLDGNG
`SSLRRKLFLDGNA [G13A]`: “normalised enrichment score” 0.385.
`SSLRRKLFFDGNG [L9F]`: “normalised enrichment score” 0.625.
For `SSLRRKLFADGNG [L9A]`, “normalised enrichment score” read 0.287.
`SSLRKKLLLDGNG [R5K F8L]` — result for “normalised enrichment score”: 0.24.
For `SSLRRKLFLDANG [G11A]`, “normalised enrichment score” read 0.467.
`SSLRAKAFLDGNG [R5A L7A]` — result for “normalised enrichment score”: -0.14.
`SSLRRKLFLDGAG [N12A]`: “normalised enrichment score” 1.24.
`ASLRRKLFLDGNG [S1A]`: “normalised enrichment score” 0.743.
`SSLRKKLFLDGNG [R5K]`: “normalised enrichment score” 0.466.
For `SSLRRKLALDGNG [F8A]`, “normalised enrichment score” read 0.73.

Study 3 — technique: RNA Bind-n-Seq; form: RNA; matrix: in vitro; concentration: 1 µM; notes: whole 134-nt RNA, ends assumed; together with: 150 mM KCl; reference: input library; direction: higher = stronger binding
Target: Ras GTPase-activating protein-binding protein 1, RRM domain (G3BP1, Homo sapiens, UniProt Q13283)
Chain of UniProt Q13283 (whole entry, looked up): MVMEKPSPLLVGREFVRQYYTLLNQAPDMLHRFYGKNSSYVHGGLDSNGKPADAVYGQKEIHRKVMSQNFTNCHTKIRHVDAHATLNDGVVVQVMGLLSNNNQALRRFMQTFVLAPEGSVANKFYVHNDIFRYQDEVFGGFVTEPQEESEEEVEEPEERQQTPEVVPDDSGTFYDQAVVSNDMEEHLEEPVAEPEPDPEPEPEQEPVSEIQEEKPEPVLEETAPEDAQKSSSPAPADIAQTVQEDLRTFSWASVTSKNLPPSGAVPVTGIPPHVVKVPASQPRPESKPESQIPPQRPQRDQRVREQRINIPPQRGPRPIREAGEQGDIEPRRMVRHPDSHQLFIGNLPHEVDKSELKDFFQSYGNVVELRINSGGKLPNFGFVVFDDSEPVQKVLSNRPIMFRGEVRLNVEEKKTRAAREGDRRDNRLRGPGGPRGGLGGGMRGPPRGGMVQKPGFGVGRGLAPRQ
With `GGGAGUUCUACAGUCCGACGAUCAAGUCCUGUGCUACACAUCGUAUGUACCGAAUCGGGCCCGGGGCCCGGGGCCCGGGGAAAGUAUUAUGUUACGCCGUUCGGAUCUGCACUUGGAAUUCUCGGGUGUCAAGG` the log2 enrichment was -1.11.
`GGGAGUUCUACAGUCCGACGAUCCACACACAACACGCACCCACACAGACACAGAGGGAAGGGGUUGGGAUGGGGACAGGGUGCACAGCAGGGCGGGGUAGGACCCCAGCCCCUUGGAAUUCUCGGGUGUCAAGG` gave a log2 enrichment of -0.0393.
For `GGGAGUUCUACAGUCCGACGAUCCAAGUCCUGUGCUACACAUCGUAUGUACCGAAUCGGAAAAAGGUGGUUUUUUUGGAAAGUAUUAUGUUACGCCGUUCGGAUCUGCACUUCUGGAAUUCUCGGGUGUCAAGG`, the log2 enrichment was -0.25.
`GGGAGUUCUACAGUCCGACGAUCAAGUCCUGUGCUACACAUCGUAUGUACCGAAUCGGGGAAAGGGAAAGGGAAAGGGGAAAGUAUUAUGUUACGCCGUUCGGAUCUGCACUUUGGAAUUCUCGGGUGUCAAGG` gave a log2 enrichment of 0.399.
`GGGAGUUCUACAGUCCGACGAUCUCAAGUCCUGUGCUACACAUCGUAUGUACCGAAUCGGAAAAAGGUGGUUUUUGGAAAGUAUUAUGUUACGCCGUUCGGAUCUGCACUUCCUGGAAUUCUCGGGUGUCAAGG` gave a log2 enrichment of -0.159.
With `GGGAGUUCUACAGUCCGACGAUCCUGUGCUACACAUCGUAUGUACCGAAUCGGAAAAAAAGGGAAAAAAAGGGGAAAAAAAGGGAAAGUAUUAUGUUACGCCGUUCGGAUCUGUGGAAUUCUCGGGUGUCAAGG` the log2 enrichment was 0.173.
With `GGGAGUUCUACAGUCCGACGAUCAGUCCUGUGCUACACAUCGUAUGUACCGAAUCGGGAAAGGGAAAAAGGGAAAAAGGGAAAGUAUUAUGUUACGCCGUUCGGAUCUGCACUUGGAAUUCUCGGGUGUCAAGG` the log2 enrichment was 0.373.
`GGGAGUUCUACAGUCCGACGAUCCAAGUCCUGUGCUACACAUCGUAUGUACCGAAUCGGGGAGGGGUUUGGGGAGGGGAAAGUAUUAUGUUACGCCGUUCGGAUCUGCACUUCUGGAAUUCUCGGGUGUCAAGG` has a log2 enrichment of 1.14.
The log2 enrichment of `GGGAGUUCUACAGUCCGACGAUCGUCCUGUGCUACACAUCGUAUGUACCGAAUCGGAAAAAAGGAAAAAAGGGAAAAAAGGGAAAGUAUUAUGUUACGCCGUUCGGAUCUGCAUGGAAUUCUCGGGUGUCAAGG` is reported as 0.115.
`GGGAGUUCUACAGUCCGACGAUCCUGUGCUACACAUCGUAUGUACCGAAUCAAACCCCCCCAAAUUUUUUUAAACCCCCCCAAAAAAGUAUUAUGUUACGCCGUUCGGAUCUGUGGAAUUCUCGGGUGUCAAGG` has a log2 enrichment of 1.27.

Study 4 — technique: DHFR PCA, deep sequencing; matrix: yeast; together with: (+)-ABA 58 µM; reference: wild-type fitted maximum; direction: higher = stronger binding
Target: ABI1, truncated, D143A, DHFR fusion (Arabidopsis thaliana)
Notes: methotrexate growth selection, single substitutions
Parent: PYL1, truncated, DHFR fusion (Arabidopsis thaliana); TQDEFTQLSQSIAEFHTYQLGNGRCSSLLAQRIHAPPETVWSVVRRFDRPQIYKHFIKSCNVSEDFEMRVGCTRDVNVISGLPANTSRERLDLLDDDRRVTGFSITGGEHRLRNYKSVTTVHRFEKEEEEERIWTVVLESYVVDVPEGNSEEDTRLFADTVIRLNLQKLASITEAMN
`H16F`: “relative binding score” -12%.
For `K54Q`, “relative binding score” read 10.2%.
`G71T`: “relative binding score” 10.2%.
Under “relative binding score”, `V76T` is recorded as 48.5%.
Under “relative binding score”, `E129Q` is recorded as 95.5%.
`G108W`: “relative binding score” -1.53%.
`S63C`: “relative binding score” 85.1%.
`H34K` — result for “relative binding score”: 91.5%.
For `F66Y`, “relative binding score” read 81.4%.
`H34N` — result for “relative binding score”: 90.7%.
Under “relative binding score”, `R45W` is recorded as -24.3%.
Under “relative binding score”, `S63V` is recorded as 81.3%.
Under “relative binding score”, `I79C` is recorded as 89.1%.
Under “relative binding score”, `Q2R` is recorded as 84.4%.
`P146K`: “relative binding score” -0.218%.
`D97G` — result for “relative binding score”: 86.2%.
Under “relative binding score”, `D48Q` is recorded as 21.8%.
`E129V`: “relative binding score” 90.5%.
`D96S` — result for “relative binding score”: 29.9%.
`I79G`: “relative binding score” 45.2%.
For `H55P`, “relative binding score” read 94.9%.
For `E131W`, “relative binding score” read 70.9%.

Study 5 — technique: protein binding microarray; form: double-stranded DNA, one strand shown; matrix: in vitro; concentration: not given; reference: not given; direction: higher = stronger binding
Target: Histone acetyltransferase KAT6A, winged helix 1, GST fusion (KAT6A, Homo sapiens, UniProt Q92794, residues 1-85)
Notes: 8-mer, flanks averaged, mean of 2 arrays, mostly near background
Target sequence (chain): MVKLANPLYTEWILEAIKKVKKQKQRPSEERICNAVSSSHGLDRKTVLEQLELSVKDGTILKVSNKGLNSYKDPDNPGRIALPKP
`GACGACGC` has an E-score of 0.172.
For `CCTATGCA`, the E-score was -0.162.
`ATCGCACG` gave an E-score of 0.195.
`AAATACTC` has an E-score of -0.1.
The E-score of `GCGTTGAC` is reported as 0.0241.
`ATGCTGAG` gave an E-score of -0.102.
The E-score of `AAAGCGAT` is reported as 0.0962.
For `AAAGACGC`, the E-score was 0.132.
`GGCTGTAC` gave an E-score of 0.00641.
`AGCGACCC` gave an E-score of 0.197.
With `CCAATCAA` the E-score was -0.121.
With `AGGGAAGG` the E-score was -0.171.
For `GAAATGTC`, the E-score was -0.115.
The E-score of `CCGTTACA` is reported as 0.144.
With `CCCTAACC` the E-score was 0.138.
For `AGCTTACG`, the E-score was 0.0382.
`ATGTCGGC` gave an E-score of 0.203.
For `AGATATAC`, the E-score was -0.0258.
`ACGTGCCG` gave an E-score of 0.286.
`CAATGGTG` gave an E-score of -0.18.
With `AGTGCCTG` the E-score was -0.14.
With `GAATTGGA` the E-score was -0.152.
For `ATCGCCTC`, the E-score was -0.0382.
With `CATGCCCC` the E-score was -0.0173.
With `CCACCGGA` the E-score was 0.134.
